Published values gathered from unrelated publications.
Protocols differ between the studies behind these lines. Numbers after ± are the reported error.
KCNT1: Potassium channel subfamily T member 1 (KCNT1, Homo sapiens, UniProt Q5JUK3)
GLP1R: Glucagon-like peptide 1 receptor (GLP1R, Homo sapiens, UniProt P43220)
ALDH1A1: Aldehyde dehydrogenase 1A1 (ALDH1A1, Homo sapiens, UniProt P00352)
GRM4: Metabotropic glutamate receptor 4 (GRM4, Homo sapiens, UniProt Q14833)
FPR2: N-formyl peptide receptor 2 (FPR2, Homo sapiens, UniProt P25090)
LDHA: L-lactate dehydrogenase A chain (LDHA, Homo sapiens, UniProt P00338)
Lysophospholipase-like protein 1: Lysophospholipase-like protein 1 (Mus musculus, UniProt Q3UFF7)

The chains behind the UniProt entries cited, without tags or fusion partners. Residues count along the entry.
UniProt Q5JUK3, whole entry: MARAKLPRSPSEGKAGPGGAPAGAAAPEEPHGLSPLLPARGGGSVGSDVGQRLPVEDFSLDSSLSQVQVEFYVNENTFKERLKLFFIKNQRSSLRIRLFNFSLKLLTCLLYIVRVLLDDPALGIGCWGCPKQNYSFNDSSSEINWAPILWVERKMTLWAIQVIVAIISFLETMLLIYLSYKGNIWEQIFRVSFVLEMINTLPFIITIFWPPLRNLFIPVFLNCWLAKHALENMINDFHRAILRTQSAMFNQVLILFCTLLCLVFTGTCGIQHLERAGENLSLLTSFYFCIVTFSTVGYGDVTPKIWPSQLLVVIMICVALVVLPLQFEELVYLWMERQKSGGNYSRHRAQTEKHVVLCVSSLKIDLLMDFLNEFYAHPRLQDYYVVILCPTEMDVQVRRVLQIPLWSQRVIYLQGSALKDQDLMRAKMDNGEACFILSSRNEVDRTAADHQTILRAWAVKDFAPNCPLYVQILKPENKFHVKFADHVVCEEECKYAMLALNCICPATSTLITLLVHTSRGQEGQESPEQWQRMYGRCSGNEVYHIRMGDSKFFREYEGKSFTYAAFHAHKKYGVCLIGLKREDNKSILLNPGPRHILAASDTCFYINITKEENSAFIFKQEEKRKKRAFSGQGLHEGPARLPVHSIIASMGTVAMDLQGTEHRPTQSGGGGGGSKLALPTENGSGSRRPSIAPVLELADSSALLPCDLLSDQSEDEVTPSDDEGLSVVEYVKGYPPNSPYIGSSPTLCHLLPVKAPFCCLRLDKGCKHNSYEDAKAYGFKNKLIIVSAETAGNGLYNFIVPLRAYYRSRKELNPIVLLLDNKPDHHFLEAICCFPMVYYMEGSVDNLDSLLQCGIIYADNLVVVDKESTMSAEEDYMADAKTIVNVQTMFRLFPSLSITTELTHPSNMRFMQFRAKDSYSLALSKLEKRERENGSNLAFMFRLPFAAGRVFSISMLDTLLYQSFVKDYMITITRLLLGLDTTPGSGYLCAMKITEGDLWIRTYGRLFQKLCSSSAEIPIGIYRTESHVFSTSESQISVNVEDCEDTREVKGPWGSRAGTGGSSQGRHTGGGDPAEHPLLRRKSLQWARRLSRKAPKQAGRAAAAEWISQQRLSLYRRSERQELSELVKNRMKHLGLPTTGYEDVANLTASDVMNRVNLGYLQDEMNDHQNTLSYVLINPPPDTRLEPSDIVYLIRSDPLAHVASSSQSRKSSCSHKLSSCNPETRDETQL
UniProt P43220, whole entry, looked up: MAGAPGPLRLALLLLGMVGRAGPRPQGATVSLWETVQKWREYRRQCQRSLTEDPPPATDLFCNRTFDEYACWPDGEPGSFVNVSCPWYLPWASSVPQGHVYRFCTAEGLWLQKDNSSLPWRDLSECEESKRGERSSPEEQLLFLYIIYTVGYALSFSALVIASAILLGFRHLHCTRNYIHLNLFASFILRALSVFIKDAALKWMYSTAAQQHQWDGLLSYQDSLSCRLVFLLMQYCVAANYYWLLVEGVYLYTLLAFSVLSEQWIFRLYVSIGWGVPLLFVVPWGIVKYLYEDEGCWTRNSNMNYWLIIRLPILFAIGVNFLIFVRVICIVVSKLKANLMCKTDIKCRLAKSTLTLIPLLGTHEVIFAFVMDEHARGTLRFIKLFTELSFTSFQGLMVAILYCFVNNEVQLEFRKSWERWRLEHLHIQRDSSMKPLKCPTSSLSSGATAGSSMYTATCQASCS
UniProt P43220, 24-463 limits assumed: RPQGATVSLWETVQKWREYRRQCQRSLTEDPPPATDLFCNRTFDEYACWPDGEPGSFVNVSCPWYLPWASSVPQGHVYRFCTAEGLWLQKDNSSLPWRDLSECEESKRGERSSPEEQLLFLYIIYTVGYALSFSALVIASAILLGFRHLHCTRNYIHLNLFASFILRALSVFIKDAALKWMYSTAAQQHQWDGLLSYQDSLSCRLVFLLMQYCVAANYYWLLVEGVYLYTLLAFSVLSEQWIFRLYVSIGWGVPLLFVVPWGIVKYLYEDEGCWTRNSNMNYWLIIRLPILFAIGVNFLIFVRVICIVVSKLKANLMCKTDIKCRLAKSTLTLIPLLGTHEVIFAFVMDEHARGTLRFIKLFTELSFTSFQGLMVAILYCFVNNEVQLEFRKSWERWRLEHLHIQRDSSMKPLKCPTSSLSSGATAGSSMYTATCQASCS
UniProt P00352, whole entry: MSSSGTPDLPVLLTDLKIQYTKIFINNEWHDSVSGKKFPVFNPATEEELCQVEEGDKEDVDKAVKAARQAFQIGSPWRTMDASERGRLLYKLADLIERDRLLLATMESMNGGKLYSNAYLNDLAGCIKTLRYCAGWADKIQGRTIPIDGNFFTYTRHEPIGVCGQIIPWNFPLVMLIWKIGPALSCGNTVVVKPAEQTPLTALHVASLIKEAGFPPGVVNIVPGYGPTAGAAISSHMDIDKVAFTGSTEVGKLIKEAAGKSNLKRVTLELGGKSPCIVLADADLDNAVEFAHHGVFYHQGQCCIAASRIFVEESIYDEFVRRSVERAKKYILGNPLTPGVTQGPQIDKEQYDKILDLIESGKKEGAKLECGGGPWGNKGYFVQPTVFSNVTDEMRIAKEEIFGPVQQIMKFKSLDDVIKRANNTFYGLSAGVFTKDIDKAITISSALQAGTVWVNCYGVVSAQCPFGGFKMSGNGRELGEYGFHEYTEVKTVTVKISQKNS
UniProt Q14833, 33-912 limits assumed: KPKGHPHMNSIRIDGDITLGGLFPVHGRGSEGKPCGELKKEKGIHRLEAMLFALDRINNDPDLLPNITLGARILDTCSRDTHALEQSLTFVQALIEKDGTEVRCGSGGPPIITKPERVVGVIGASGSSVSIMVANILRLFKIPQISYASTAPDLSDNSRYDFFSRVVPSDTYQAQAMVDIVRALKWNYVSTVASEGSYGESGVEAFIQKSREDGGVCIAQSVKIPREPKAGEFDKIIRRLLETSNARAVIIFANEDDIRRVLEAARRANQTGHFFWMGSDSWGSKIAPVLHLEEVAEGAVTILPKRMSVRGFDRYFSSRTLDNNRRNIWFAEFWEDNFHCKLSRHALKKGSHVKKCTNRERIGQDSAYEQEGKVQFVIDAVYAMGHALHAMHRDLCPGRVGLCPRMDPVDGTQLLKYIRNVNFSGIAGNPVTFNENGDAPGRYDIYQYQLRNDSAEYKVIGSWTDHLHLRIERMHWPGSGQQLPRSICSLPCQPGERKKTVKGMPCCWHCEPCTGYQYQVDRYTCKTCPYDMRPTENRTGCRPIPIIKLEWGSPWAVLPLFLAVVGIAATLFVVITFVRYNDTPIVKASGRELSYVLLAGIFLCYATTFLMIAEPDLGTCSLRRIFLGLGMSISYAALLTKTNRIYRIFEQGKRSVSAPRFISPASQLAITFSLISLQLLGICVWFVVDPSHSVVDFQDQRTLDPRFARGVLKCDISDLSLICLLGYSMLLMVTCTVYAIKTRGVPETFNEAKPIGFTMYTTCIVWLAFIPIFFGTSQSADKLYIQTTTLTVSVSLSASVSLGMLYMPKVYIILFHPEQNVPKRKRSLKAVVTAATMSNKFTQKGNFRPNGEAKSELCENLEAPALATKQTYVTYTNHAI
UniProt Q3UFF7, whole entry: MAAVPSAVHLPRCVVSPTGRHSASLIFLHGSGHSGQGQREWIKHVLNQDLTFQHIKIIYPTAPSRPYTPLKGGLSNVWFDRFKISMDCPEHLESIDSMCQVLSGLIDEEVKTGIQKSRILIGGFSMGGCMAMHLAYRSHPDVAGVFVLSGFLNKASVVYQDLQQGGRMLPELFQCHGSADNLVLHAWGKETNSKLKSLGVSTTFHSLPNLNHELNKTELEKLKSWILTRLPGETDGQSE
UniProt Q9JJJ7, whole entry: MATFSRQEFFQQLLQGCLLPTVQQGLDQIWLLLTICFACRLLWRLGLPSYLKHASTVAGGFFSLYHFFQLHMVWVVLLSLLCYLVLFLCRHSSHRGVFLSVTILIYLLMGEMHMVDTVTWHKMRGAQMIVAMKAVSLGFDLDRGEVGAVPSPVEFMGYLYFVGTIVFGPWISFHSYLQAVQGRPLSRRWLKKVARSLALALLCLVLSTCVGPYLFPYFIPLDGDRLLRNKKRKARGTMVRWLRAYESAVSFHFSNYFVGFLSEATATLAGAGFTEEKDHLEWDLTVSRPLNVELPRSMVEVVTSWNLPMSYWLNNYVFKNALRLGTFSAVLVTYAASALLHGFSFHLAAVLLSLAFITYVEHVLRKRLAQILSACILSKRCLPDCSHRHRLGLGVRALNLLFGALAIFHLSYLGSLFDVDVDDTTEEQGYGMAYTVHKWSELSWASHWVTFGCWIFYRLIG
UniProt O60603, whole entry, looked up: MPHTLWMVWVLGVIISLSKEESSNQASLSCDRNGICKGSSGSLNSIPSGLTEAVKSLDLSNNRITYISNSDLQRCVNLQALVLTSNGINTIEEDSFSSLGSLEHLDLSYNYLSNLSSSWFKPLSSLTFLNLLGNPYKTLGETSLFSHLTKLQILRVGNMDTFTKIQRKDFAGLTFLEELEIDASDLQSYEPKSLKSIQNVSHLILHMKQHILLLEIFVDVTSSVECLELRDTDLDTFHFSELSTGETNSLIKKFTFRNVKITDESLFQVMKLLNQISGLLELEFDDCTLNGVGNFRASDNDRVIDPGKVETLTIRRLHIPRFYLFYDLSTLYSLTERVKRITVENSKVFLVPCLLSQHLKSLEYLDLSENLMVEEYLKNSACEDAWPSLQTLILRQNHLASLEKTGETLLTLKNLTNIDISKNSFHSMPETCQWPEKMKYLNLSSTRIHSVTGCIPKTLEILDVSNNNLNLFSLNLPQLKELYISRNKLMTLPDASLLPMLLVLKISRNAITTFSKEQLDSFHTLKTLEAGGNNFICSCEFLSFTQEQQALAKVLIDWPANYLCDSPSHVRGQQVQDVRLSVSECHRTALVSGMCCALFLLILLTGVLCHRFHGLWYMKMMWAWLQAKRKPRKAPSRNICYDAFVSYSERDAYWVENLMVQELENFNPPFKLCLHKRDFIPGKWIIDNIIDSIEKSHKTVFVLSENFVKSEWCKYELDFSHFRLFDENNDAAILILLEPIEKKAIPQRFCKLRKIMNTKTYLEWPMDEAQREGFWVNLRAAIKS
UniProt P13569, whole entry N1303K: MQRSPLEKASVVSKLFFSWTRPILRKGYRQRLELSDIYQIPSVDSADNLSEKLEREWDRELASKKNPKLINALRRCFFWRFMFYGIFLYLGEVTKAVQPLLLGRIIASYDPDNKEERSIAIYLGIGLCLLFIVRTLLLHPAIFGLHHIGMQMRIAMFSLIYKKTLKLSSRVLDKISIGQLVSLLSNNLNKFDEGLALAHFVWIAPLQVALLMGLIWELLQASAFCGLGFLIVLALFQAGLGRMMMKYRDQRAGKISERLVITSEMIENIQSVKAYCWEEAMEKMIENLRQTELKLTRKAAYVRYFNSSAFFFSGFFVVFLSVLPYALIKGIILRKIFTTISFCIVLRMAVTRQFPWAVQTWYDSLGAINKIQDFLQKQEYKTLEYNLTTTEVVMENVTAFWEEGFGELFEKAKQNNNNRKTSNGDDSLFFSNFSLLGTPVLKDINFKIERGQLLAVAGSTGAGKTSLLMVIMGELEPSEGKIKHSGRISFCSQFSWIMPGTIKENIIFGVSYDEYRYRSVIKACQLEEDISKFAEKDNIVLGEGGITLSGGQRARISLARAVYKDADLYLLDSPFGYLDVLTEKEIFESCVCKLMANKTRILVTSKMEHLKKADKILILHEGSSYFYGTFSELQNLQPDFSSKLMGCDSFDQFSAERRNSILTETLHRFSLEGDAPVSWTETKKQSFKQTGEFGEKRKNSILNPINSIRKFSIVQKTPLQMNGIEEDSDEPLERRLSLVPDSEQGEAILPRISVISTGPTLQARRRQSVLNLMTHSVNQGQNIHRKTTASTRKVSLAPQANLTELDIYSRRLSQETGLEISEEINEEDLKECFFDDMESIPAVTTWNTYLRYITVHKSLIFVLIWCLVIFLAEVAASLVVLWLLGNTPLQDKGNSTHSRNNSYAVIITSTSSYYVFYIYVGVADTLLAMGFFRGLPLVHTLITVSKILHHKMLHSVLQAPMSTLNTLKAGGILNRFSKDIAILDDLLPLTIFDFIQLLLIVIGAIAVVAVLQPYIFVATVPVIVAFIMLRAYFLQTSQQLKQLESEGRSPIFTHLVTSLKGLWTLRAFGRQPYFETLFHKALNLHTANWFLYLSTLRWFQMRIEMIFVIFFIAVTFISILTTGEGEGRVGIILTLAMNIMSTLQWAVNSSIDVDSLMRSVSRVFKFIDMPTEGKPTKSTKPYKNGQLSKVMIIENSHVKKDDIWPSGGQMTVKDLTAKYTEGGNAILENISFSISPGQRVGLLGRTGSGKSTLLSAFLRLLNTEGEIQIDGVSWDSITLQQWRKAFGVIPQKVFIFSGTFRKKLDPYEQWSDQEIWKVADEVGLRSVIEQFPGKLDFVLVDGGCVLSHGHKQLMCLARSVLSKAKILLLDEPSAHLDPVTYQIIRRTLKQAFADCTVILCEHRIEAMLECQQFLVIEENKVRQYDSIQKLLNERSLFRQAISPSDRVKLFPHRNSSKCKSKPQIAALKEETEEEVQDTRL

Compound	target or system	test	system	conditions	how to read	EC50 [µM]
Cc1cccc2ncn(CC3CCN(S(=O)(=O)c4cccc(C(F)(F)F)c4)CC3)c12	KCNT1	thallium flux, activator	HEK293 expressing KCNT1	–	–	1.3
CC(C(=O)Nc1ccc(-c2ccccc2)cn1)n1nnc(-c2ccncc2)c1-c1ccccc1 (stereo not drawn)	Protein-serine O-palmitoleoyltransferase porcupine (Mus musculus, UniProt Q9JJJ7)	Wnt signalling reporter, inhibitor	L-Wnt-STF	–	–	0.0002
COC(=O)[C@@H]1C(c2nc3ccccc3o2)=Cc2cc3c(cc2[C@H]1c1cc(OC)c(OC)c(OC)c1)OCO3	Leishmania infantum	–	promastigote, iRFP	–	–	19.4 ± 2.1
O=C(O)CCNC(=O)c1ccc(NCc2cn(CCc3ccc4ccccc4c3)nn2)cc1	GLP1R	cAMP accumulation, positive allosteric modulator, HTRF	CHO-K1 expressing GLP1R	together with: GLP-1 at EC20	–	6.75
CCCn1c(NCc2cccc(Cl)c2O)nc2ccccc21	ALDH1A1	enzyme activity, inhibitor, NADH absorbance 340 nm	–	pH 7.5, 25 °C, 200 µM NAD+, together with: 100 µM propionaldehyde	–	0.19 ± 0.015
COc1cc([C@@H]2c3cc4c(cc3[C@@H](CC(C)(C)O)[C@H]3COC(=O)[C@H]23)OCO4)cc(OC)c1OC	Leishmania infantum	–	promastigote, iRFP	–	–	> 100
NCCCCNC(=O)[C@H](Cc1ccccc1)NC(=O)N1CCc2ccccc2C1	Mc1r (Mus musculus, UniProt Q01727)	reporter gene, agonist, β-galactosidase reporter	HEK293 stably expressing Mc1r	–	–	3.8 ± 0.3
CCC(C)(N)c1cn(CC(C)(C)c2c[nH]c3ccccc23)nn1 (stereo not drawn)	GLP1R	cAMP accumulation, positive allosteric modulator, HTRF	CHO-K1 expressing GLP1R	purified compound, together with: GLP-1(9-36) at EC20	–	2.01 ± 0.72
Cc1nc(-c2ccc(OCC(C)C)c(C#N)c2)sc1C(=O)N1CCC(F)(F)CC1	Grm2/Grm4 (Rattus norvegicus, UniProt P31421+P31423)	thallium flux, positive allosteric modulator	HEK293 GIRK	together with: glutamate EC20	–	2.3
Cc1c(=O)n(C)c(Nc2ccc(I)cc2F)c2c(=O)n(C3CC3)c(=O)n(-c3cccc(NC(=O)CCOCCOCCNC(=O)CCC4=[N+]5C(=Cc6ccc(-c7ccc[nH]7)n6[B-]5(F)F)C=C4)c3)c12	MAP2K1 (Homo sapiens, UniProt Q02750)	binding, NanoBRET	HEK-293T	MEK1-NanoLuc	–	0.006
Cc1[nH]c2cc(Cl)cc(Cl)c2c1CCn1cc(CCCN)nn1	GLP1R	cAMP accumulation, positive allosteric modulator, HTRF	CHO-K1 expressing GLP1R	purified compound, together with: GLP-1(9-36) at EC20	–	0.574 ± 0.06
COc1ccc(NC(=O)CN2CCCN(S(=O)(=O)c3ccc(OC(F)(F)F)cc3)CC2)c(OC)c1	GRM4	calcium mobilization, positive allosteric modulator	CHO cells with Gqi5	together with: glutamate EC20	–	> 10
O=S(=O)(c1cccc(C(F)(F)F)c1)N1CCC(Cn2cnc3ccc(C(F)(F)F)cc32)CC1	KCNT1	thallium flux, activator	HEK293 expressing KCNT1	–	–	3
CNc1ccc([N+](=O)[O-])cc1-n1cnc(-c2ccc(C(=O)OC)cc2)c1	Toll-like receptor 1/2 (Homo sapiens, UniProt O60603+Q15399)	reporter gene, agonist, SEAP reporter	HEK-Blue hTLR2	24 h	–	0.99 ± 0.19
CCCCC(C(=O)Nc1ccc(Br)cc1)n1nc(C)cc(Cc2cccc(OC)c2)c1=O (racemic)	FPR2	calcium mobilization, agonist	HL-60 transfected with FPR2	–	–	0.1
CN(Cc1ccccc1)Cc1cn(CC(C)(C)c2c[nH]c3ccccc23)nn1	GLP1R	cAMP accumulation, positive allosteric modulator, HTRF	CHO-K1 expressing GLP1R	crude reaction product, together with: GLP-1(9-36) at EC20	–	0.687
COc1ccc(NC(=O)CN2CCCN(S(=O)(=O)c3ccc(F)c(F)c3)CC2)c(OC)c1	GRM4	calcium mobilization, positive allosteric modulator	CHO cells with Gqi5	together with: glutamate EC20	–	> 10
Oc1ccc(N=Cc2c(O)ccc3ccccc23)cc1	CDK2 (Homo sapiens, UniProt P24941)	ANS displacement	–	5 % DMSO, together with: ANS 50 µM	reference: staurosporine 0 µM	12 ± 0.8
Nc1nc(SCc2ccc(Cl)cc2)nn1S(=O)(=O)c1cccc2nonc12	LYPLAL1 (Homo sapiens, UniProt Q5VWZ2)	enzyme activity, activator, gel-based ABPP, FP-rhodamine	purified protein	–	–	0.23
COc1cc(Nc2ncc3c(n2)-c2ccc(Cl)cc2C(c2c(F)cccc2OC)=NC3)ccc1C(=O)NCCOCCOCCOCCOCC(=O)N[C@H](C(=O)N1C[C@H](O)C[C@H]1C(=O)NCc1ccc(-c2scnc2C)cc1)C(C)(C)C	Aurora kinase B (AURKB, Homo sapiens, UniProt Q96GD4)	target engagement, NanoBRET	HEK293	2 h	–	2.66 ± 0.247

Compound	target or system	test	system	conditions	how to read	EC50 [µM]
NS(=O)(=O)c1ccc(Cc2c(C3CCCC3)nn(-c3nc(C(=O)O)cs3)c2-c2ccccc2)cc1	LDHA	thermal stabilisation, CETSA	HEK293	3.5 min, 71 °C	–	19
Nc1nc(SCc2ccc(Cl)cc2)nn1S(=O)(=O)c1ccc(-c2ccccc2)nc1	Lysophospholipase-like protein 1	enzyme activity, activator, gel-based ABPP, FP-rhodamine	purified protein	–	–	0.19
NCC(c1ccccc1)c1cccc(Oc2ccccc2)c1 (stereo not drawn)	Trace amine-associated receptor 1 (Rattus norvegicus, UniProt Q923Y9, N287Y)	cAMP, agonist	–	rat receptor mutant	–	~10
COc1ccc2nc(SCC(=O)Nc3ccc(SC)cc3)[nH]c2c1	FPR1 (Homo sapiens, UniProt P21462)	calcium mobilization, agonist	HL-60 transfected with FPR1	–	–	2
Cc1ccc(S(=O)(=O)OCCc2cn(CCc3c(C)[nH]c4cc(Cl)cc(Cl)c34)nn2)cc1	GLP1R	cAMP accumulation, positive allosteric modulator, HTRF	CHO-K1 expressing GLP1R	purified compound, together with: GLP-1(9-36) at EC20	–	0.95 ± 0.203
O=C(Nc1ccc([N+](=O)[O-])cc1)N[C@@H](Cc1c[nH]c2ccccc12)C(=O)NCC1(c2ccccn2)CCCCC1	FPR2	Ca2+ mobilization, agonist	HL-60 transfected with FPR2	–	–	2 ± 0.65
Nc1nc(NCc2ccc(Cl)cc2)nn1S(=O)(=O)c1cccc2ccccc12	Lysophospholipase-like protein 1	enzyme activity, activator, gel-based ABPP, FP-rhodamine	purified protein	–	–	2.4
CSc1cc(NC(=O)c2ccccn2)ccc1Cl	GRM1 (Homo sapiens, UniProt Q13255)	agonist	–	–	–	> 30
Oc1c(Cl)cccc1CNc1nc2ccccc2n1CC1CC1	ALDH1A1	enzyme activity, inhibitor, NADH absorbance 340 nm	–	pH 7.5, 25 °C, 200 µM NAD+, together with: 100 µM propionaldehyde	–	0.097 ± 0.029
CC(C)(Cn1cc(CNC(=O)Cc2ccccc2)nn1)c1c[nH]c2ccccc12	GLP1R	cAMP accumulation, positive allosteric modulator, HTRF	CHO-K1 expressing GLP1R	purified compound, together with: GLP-1(9-36) at EC20	–	1.02 ± 0.122
Cc1cnc(C#Cc2cccc(-c3nn(-c4nc(C(=O)O)cs4)c(CCC4CC4)c3Cc3ccc(S(N)(=O)=O)c(F)c3)c2)s1	LDHA	thermal stabilisation, CETSA	HEK293	3.5 min, 71 °C	–	0.01
O=C(N[C@H]1CCCC[C@@H]1O)[C@@H]1CN(Cc2ccc(-n3cccn3)cc2)c2ccccc2O1	CHRM1 (Homo sapiens, UniProt P11229)	calcium mobilization, agonist	high-expression cell line	–	–	> 10
NCC(c1ccccc1)c1ccc(O)cc1 (stereo not drawn)	Taar1 (Mus musculus, UniProt Q923Y8)	cAMP production, agonist	HEK293	–	–	> 10
Nc1nc(SCc2ccc(Cl)cc2)nn1S(=O)(=O)c1ccc2[nH]c(=O)[nH]c2c1	Lysophospholipase-like protein 1	enzyme activity, activator, gel-based ABPP, FP-rhodamine	purified protein	–	–	0.74
O=C(NC1CCCCC1)C12CC1/C(=N\O)c1ccccc1O2 (stereo not drawn)	GRM4	calcium mobilization, positive allosteric modulator	CHO hmGluR4/Gqi5	together with: glutamate EC20	–	> 5
CCCN(C(=O)C1CCN(S(=O)(=O)c2ccc3[nH]ncc3c2)CC1)[C@@H]1CCc2ccccc21	CHRM5 (Homo sapiens, UniProt P08912)	positive allosteric modulator, calcium mobilization	CHO cells expressing human M5	together with: acetylcholine EC20	–	0.112
CCS(=O)(=O)c1nc(-c2ccc(F)cc2)cc(C(F)F)n1	GLP1R	cAMP accumulation, agonist	HEK293T overexpressing target	no peptide ligand	–	42 ± 5.8
Nc1nc(NCCc2ccc(Cl)cc2)nn1S(=O)(=O)c1ccc2c(c1)CCO2	Lysophospholipase-like protein 1	enzyme activity, activator, gel-based ABPP, FP-rhodamine	purified protein	–	–	> 20
CCc1ccc(NS(=O)(=O)c2cn(Cc3ccccn3)c3ncccc23)cc1	CFTR (Homo sapiens, UniProt P13569, N1303K)	chloride current, co-potentiator, short-circuit current	FRT expressing CFTR	together with: forskolin, 5 µM ivacaftor	–	1.7
